Measurements of several laboratories.
Numbered parts are unrelated; each lists some results of a single study.

Series 1
Target: Sal-like protein 4, full length isoform B (SALL4, Homo sapiens, UniProt Q9UJQ4-2, residues 1-616)
Method: universal PBM
Form: double-stranded DNA, one strand shown
Matrix: in vitro
Concentration: not given
Setting: 8-mer, flanks averaged, mean of replicates
Direction: higher = stronger binding
Residues (chain): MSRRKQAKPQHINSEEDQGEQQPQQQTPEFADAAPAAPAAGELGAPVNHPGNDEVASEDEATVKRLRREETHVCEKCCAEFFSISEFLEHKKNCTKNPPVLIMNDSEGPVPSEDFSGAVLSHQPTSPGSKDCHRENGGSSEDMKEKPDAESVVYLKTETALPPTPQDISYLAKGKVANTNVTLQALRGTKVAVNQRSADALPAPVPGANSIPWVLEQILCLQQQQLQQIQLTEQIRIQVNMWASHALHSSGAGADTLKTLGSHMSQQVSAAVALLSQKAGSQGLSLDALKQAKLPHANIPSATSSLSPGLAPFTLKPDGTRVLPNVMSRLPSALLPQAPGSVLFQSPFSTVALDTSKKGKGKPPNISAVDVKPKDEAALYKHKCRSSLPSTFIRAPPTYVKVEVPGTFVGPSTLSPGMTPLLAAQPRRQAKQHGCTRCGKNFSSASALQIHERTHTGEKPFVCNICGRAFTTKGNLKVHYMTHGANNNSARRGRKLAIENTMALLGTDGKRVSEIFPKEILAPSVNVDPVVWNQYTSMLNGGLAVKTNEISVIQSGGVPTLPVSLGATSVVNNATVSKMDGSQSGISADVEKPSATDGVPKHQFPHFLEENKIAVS
| Strand | E-score |
| --- | --- |
| CGTGGGGA | -0.216 |
| TGGTAGAA | -0.0242 |
| CATGAGAC | 0.0462 |
| ATTAGGTA | 0.223 |
| ACAGCGGG | -0.177 |
| AACATTAA | 0.363 |
| CATAAATG | 0.337 |
| GCTACAGC | -0.23 |
| GAGGCACC | -0.366 |
| GGTGCCGA | -0.291 |
| ATGTAGTA | 0.271 |
| GCGGGCGA | -0.363 |
| ATTCTAAC | 0.18 |
| CTGTAGTC | -0.0909 |
| CATGCTCG | -0.0507 |
| ATTAAAAT | 0.391 |
| GTCTTCTA | 0.121 |
| ATTTCTGC | 0.225 |
| CCATACTA | 0.287 |

Series 2
Target: RNA binding protein fox-1 homolog 2, RRM domain, GST-SBP tag (RBFOX2, Homo sapiens, UniProt O43251-10, residues 100-194)
Method: RNA Bind-n-Seq
Form: RNA
Matrix: in vitro
Concentration: 365 nM
Setting: natural RNA segment, single round, ends assumed
Reference: no-protein control
Direction: higher = stronger binding
Shared flanks, not repeated: GGGAGUUCUACAGUCCGACGAUC … UGGAAUUCUCGGGUGCCAA
Construct (chain): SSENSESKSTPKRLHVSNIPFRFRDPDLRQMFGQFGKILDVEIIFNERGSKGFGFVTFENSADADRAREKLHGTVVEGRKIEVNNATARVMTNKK
| Strand | RBNS enrichment (R) |
| --- | --- |
| UCAAAGCCACUGGUUAUUUUGUUUUUCAUCAGGCGAUUUUCAAGAUUUUCAUUUGUUUCAGUAUUGUUGGUUUUCUCUUUUCUCUUUUUUACACUGUGGUACAUAUAAGC | 1.16 |
| GCAUCCUGUCCAUUUUUAACCUGUGUUCUGCCAGUAUGACUGUGUAGCUCAGUCAUAUUGAACAGGGAGGUGGGGAUGCUGUUGAUGGGCUGUUAAAUCGGAAAGGAUGU | 0.544 |
| UUAAUGACAGAAGGAAGCCCCGCCCCUCACUGCUGUCAAAGCCUUCAGUAAACAUGUGAAUCCUGAAACCCUAACAUUCUGAUUGCAAUCUCUACUCAUCCCUCCUUCCC | 1.14 |
| GGAAGCACUUGAUGGAGAGCUGCCCAGCUCUCCUACAAGGUUAGUGCCCUCCACCUAGGGAAGCAUGAACCACAGGGUCCCUGAGGGCCUUCGACAAAAGUGUGUAUUUG | 2.23 |
| UUUCAUCUGAGGACUUUCAUCUGUGCAUAUCACGGCCCCCCAGGGCAGUUCCUGCUGGACCAGACUCUCUGGCAGAGGAGGUGGAGUUCUUCCAUGCAGGAGCACGGCAU | 0.393 |
| GAGUAUUUUAGUGGGAAGUUGCCAACUUUUUAAGAAUGAGCAGUUGACAAGGGCCAGAGCCUGUCCCUUGUCAGCAGUAGGACAUUUCCAGCUCUUAGGAAUAGAAAGGA | 0.54 |
| UAAAAUCCUAAUAAUGUCUCAUUUCCAAUAUGUUAUUUUCAGAUAACUAAGGUUUUGCUACUAAUGUCAGCCAUUUACUCUCCCACUAAUUGGGAUUAUUUUUUAAAAGA | 0.452 |
| ACUGCAUUCUUUGGACGUGUGAAUCCAUGUUCCUCUUCCUCUGGCCACUGAACACCUCCACCAGCUCUUUGGGAAUUGGAUGGAAAGGCGGCCCCUGGGGGCCAGGGGUG | 0.294 |
| CCUAACACACAUAACCAUCAGCCAGAAGAUGCCGCAUGCUCCCCUGUGUCUGGAGGAUUUUGUCACCUACAAGCCUUGUCUUUACCUCACCUGCUCCCUGCCCAUAUCUA | 11.9 |
| UCCAGCAAAACUACUGCUUAUUCUCCAAAGAAUAUUGGGAGCUCUCAAUCCUCGGUGAUAUGGGAAAGAGAACUGAGUAUUUGCCCUAUGACUGAGCUUUCUAUAGGAAU | 0.379 |
| CUGGAGAUCAGGGAGCUUCGUGUGUGUGUGUGUGUGUGUGUGUGUGUGUGUGUGUGUGUGUGCGUGCGCGCGCGCGUGCGCACGCACGUGCAUGCACAUGCUAUGUAUUG | 3.4 |
| AUACUUCAUUUGGAGAUGUAUGGUGUAAAACACACAAACACACACAAAAAAGCACAAGCCCGCUGCAUGACCCGUCUCUCCUUUCUGGGACUAUUUCUGCUGCGUCCUGC | 9.12 |

Series 3
Target: Centromere-binding protein 1, full length, N-terminal tag (CBF1, Saccharomyces cerevisiae, UniProt P17106, residues 1-351)
Sequence of UniProt P17106 (whole entry, looked up): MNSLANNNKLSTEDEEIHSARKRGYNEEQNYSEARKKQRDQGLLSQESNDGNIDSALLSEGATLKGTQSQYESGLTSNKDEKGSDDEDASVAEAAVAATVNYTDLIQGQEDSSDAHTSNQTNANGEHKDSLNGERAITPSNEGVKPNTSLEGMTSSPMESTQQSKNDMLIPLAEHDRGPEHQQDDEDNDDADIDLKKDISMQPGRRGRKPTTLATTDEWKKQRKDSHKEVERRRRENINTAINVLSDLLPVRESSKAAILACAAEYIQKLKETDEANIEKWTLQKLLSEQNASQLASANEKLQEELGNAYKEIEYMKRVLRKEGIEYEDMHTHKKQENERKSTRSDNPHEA
Method: protein-binding microarray
Form: double-stranded DNA, one strand shown
Matrix: in vitro
Concentration: 0.8 µM
Setting: whole 60-bp probe, no competitor
Direction: higher = stronger binding
Shared flanks, not repeated: … GTCTTGATTCGCTTGACGCTGCTG
| Strand | fluorescence intensity [a.u.] |
| --- | --- |
| GAACCGAAAATAAAGCACATGTAAAGCATTAAGTAG | 847 |
| CTACCCGTCAGCGATGGTGACGTAAACGACTTTTTC | 482 |
| GAATACCCTCTCTAAAATGTCACCTAGTATTTTTAG | 494 |
| CTAGAATGAGGAACAATCGTGATATTATTATGTTTC | 557 |
| CTATAGCAAGGACGTCACCTGGACTCCTGACTATTC | 732 |
| CTAAAGAGAGTGAATCAGATGAGGATAGGGTTATTC | 528 |
| GAATCCTAGGTTTGTCACGACGGTGGCCACCGGTAG | 623 |
| CTAAGAATAATAGGGCACGGTACGTTCATTCCATTC | 563 |
| GAACCTTCTTCGTACACCGTGATTTTTCAGACGTAG | 633 |
| CTACGGCGGAAGGCACAGGAGATACCCCCACTATTC | 494 |
| GAAGCCCCCCTCACGCACGGGACGGAAGAAGGGTAG | 805 |
| GAACGATTCAAAGCAGGTGAATTTCCATTACGTTAG | 530 |
| CTAAGTTGCTTGGAGGAGGTGGTGGAGGCGGAATTC | 516 |
| CTATAAAAAGTTGACGTCAGCATACAATTTGAATTC | 564 |
| CTACGTATATCACATCACGTTTACGCGTATGGTTTC | 1690 |
| GAAACTTTGCGTTATCATCATATGATCTCAACATAG | 1130 |
| TGTACGAAGCTATCGAACATGTGTATAGTAGTTAGG | 671 |
| CTAGCGTAATTCTCTCAGCTGAACAAGAACTGATTC | 538 |
| CCTAACTACTATAGTGGTGACTCATAGCTTCGTACA | 559 |
| GAATCTTTAATGCACGTGATGAAGGCTCGTTTTTAG | 10800 |
| GAATCCAGAACCAGCCGTCAGGGATATTTGAATTAG | 508 |
| GAACTCTTCAAGCAAAACGTGCTTAAAAGTGTCTAG | 640 |
| CCTAACTACTATAGGATCACCAGATAGCTTCGTACA | 533 |
| GAACCTGTGTTCTATAACGTGAACCATAAGCTTTAG | 590 |
| GAAGACTATTGGCAGCATCAGAGAGAATTAAACTAG | 535 |

Series 4
Target: RING finger protein unkempt homolog, zinc fingers 1-6, GST-SBP tag (UNK, Homo sapiens, UniProt Q9C0B0, residues 30-357)
Method: RNA Bind-n-Seq
Form: RNA
Matrix: in vitro
Concentration: not given
Setting: RNA with constant flanks, human and mouse sites, ends assumed
Reference: input RNA pool
Direction: higher = stronger binding
Shared flanks, not repeated: GGGAGUUCUACAGUCCGACGAUC … CAACAGAGGAUUGAGCAUCA
Residues (chain): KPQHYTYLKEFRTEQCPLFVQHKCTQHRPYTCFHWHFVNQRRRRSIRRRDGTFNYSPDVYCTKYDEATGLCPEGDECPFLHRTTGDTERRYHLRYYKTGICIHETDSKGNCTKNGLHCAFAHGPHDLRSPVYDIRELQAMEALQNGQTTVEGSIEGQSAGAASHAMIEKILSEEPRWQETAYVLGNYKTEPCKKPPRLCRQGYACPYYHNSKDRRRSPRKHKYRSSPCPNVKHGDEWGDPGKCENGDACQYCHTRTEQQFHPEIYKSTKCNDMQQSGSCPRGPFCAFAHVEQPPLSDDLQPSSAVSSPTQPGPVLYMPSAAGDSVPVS
| Strand | bound/input enrichment |
| --- | --- |
| GCUUUCCCUGCCUUCCUGGGCACUGAGGCCUCCAGCUCAGGCAAUGGCUCCUGGCUGGAGCUGAUGCCCCUGACUGCUGUGAGCGUGCACCUGCUGACAGGUAAUGGGACAGAGGUGCCG | 0.0944 ratio |
| UUGGUGACUAUUAUGUAUGGUUAUAAAUUGAGAGACUUAUACAGAAACAAUUUUGAAGAUCUUCAUUGCAAAUUCUAUCAACUUGAGAAACUAAUGCAGGAACAGCUGCCAGACCUGUAC | 0.226 ratio |
| AUUUAAUAUUGCUUCUCCUGCAUGGCGAAACUGCCUAUUCUGCUAUUUAAAACCCUCAUAAAUUUAUUUUCUACUGCCGCUUUUUCAUGUGCAGCCAAAAUGGAAAUGUUUAAAUUAACU | 0.657 ratio |
| ACUGCAGUGUCCCGGAGCCUGCGUGUGGUGGGCAAGCUCCUCAAAUGGUAUCUCACAGGGAAUAGGGGAGUCUUGAAAACGCAGCUUCGGCAGUAGGAACAUGAACCUCUUACCUAAAAG | 0.181 ratio |
| GAACCACUUGAAGAAAAUUGCGCUAAAGCCCUGACUUUAAGGAUACAUGAUUCUUUGAAUAAUAGCCUUCCAAUUGGCCUUGUGCCUACUAAUUCAACAAACACUGUCAUGGACCAAAAA | 0.292 ratio |
| CGGGCGGCUUUCCAGAGCCUGCUGGACGCCCGGGCGGACGAGGCCGCGCUAGAUCACCCAUACUUGAAACAGAUCGACCCAGUGGUUUUAAAGCAUUGUCAUGCAGCAGCUGCAACUUGC | 0.149 ratio |
| UUGAACUUGCAGAAGACUUUUAAGCCAGCUAUACAAGAACUGAAGCCACCAACCUAUAAGCUAAUGACUCAGGCACAGUUGGAAGAGGCUACAAGACAGGCAGUUGAGGCAGCUAAAGUA | 0.266 ratio |
| GAAGCUACAUACCCAAAUACAUAUAUUUUUGACUUAUUUGGAGGUGUUGAUCUUCUUGUAGAAAUUCUUAUGAGGCCUACCAUCUCUAUCCGGGGACAGAAACUAAAAAUAAGUGACGAG | 0.27 ratio |
| CUCCGUCUGCGAUGCAGGGCGGCGGCCUGUAAUCCCAGCGACCGCCAGGAGUGGCAGAAUUUAGUGACAUUUGGAAGCUUUUCAAACAUGGUUCCCUGUAGUCAUCCAUAUAUUGGUACC | 0.458 ratio |
| GGUAGUCUGGCUGUAUUUGGAAAGUUGCAAAGAAGGUAGAUUUGGGGGCAGGAAAAACAACCCUUUUCACAGUGUACUGUGUUUGGUUGGUGUAAAACUGAUGCAGAUUUUUCUGAAAUG | 0.705 ratio |
| UCCGAUAACUCCAGGUUUCCACUUGCAGUUGUAGAAGAGCCAAUUACUGUGGAAGUGGCUUUUAGAAACCCUUUAAAAGUUCCGCUUUUGCUGUCUGAUUUGUCAUUACUCUGGAAGUUU | 0.15 ratio |

A few entries again (series 3):
| Strand | fluorescence intensity [a.u.] |
| --- | --- |
| GAACTCTTCAAGCAAAACGTGCTTAAAAGTGTCTAG | 640 |
| CCTAACTACTATAGGATCACCAGATAGCTTCGTACA | 533 |
| GAACCTGTGTTCTATAACGTGAACCATAAGCTTTAG | 590 |
| GAAGACTATTGGCAGCATCAGAGAGAATTAAACTAG | 535 |
